{"data": "Assay results from different studies", "note": "Numbered parts are unrelated; each lists some results of a single study. Several values in a cell are separate wells, animals, samples, runs or records.", "chain of UniProt Q13470 (whole entry, looked up)": "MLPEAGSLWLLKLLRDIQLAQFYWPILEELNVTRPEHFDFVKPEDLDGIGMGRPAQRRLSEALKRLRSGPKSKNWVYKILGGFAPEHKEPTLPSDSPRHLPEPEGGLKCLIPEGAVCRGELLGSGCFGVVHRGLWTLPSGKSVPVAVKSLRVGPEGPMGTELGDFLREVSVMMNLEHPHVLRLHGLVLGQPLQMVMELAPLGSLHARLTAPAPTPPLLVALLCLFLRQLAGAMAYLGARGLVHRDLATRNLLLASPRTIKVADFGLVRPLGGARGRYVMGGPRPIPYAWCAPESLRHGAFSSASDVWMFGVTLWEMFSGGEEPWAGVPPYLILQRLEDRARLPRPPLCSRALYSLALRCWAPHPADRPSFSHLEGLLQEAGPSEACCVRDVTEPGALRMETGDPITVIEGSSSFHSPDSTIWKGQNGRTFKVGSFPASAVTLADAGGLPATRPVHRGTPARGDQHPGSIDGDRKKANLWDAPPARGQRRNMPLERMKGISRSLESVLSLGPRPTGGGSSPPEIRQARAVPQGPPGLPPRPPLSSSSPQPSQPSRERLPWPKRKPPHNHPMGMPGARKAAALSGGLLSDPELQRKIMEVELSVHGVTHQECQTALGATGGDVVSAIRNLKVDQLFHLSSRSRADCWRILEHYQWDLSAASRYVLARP", "chain of UniProt P35626 (whole entry, looked up)": "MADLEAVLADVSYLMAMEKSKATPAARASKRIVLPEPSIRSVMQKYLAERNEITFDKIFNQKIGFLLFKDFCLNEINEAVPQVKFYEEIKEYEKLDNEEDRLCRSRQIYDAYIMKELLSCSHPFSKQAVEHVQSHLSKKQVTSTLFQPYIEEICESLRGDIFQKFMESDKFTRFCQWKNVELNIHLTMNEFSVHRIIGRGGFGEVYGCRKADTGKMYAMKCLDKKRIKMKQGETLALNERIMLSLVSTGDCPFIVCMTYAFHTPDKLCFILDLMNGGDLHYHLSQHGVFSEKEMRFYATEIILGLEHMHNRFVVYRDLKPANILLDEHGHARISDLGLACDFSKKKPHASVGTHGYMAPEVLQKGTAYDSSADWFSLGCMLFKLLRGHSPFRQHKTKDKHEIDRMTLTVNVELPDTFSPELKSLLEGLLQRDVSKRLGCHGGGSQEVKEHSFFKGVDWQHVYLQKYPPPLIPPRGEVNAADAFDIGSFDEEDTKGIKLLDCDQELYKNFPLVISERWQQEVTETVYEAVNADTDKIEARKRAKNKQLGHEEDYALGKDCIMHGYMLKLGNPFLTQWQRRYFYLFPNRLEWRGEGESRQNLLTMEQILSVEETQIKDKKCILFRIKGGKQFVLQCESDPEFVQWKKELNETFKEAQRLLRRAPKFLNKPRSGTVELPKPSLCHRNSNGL"}
{"data": "Series 1", "species": "mouse", "matrix": "microsomes or S9", "concentration": "2 µM", "time": "0.5 h"}
{"SMILES": "COc1cccc(-c2cn3ncnc3n2Cc2cccc(Br)c2)c1", "remaining compound [%]": 1.76}
{"SMILES": "COc1ccc(CCN(Cc2nc(-c3ccccc3)no2)Cc2nc(-c3ccccc3)no2)cc1OC", "remaining compound [%]": 1.16}
{"SMILES": "O=C(O)/C=C/c1ccc2c(c1)N(Cc1ccccc1)C(=O)CO2", "remaining compound [%]": 63.7}
{"data": "Series 2", "target": "Calcium/calmodulin-dependent protein kinase type II subunit alpha (CAMK2A, Homo sapiens, UniProt Q9UQM7)", "effect on": "enzyme activity", "action": "inhibitor", "concentration": "10 µM", "chain of UniProt Q9UQM7 (whole entry, looked up)": "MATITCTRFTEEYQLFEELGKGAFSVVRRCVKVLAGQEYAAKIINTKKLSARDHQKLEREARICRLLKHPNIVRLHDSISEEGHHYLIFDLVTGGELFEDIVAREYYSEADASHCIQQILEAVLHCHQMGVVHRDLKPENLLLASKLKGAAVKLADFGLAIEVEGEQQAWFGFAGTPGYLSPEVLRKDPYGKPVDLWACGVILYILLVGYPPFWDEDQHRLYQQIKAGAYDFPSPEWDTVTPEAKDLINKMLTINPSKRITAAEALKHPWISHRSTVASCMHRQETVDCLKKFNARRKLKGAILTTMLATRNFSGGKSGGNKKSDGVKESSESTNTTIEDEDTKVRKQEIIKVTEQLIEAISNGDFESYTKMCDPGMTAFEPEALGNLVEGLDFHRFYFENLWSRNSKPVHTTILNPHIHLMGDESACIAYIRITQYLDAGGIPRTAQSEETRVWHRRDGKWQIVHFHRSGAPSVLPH"}
{"Compound": "CN(CCO)CC(O)Cn1cnc2c1c(=O)n(C)c(=O)n2C (stereo not drawn)", "inhibition [%]": -4}
{"Compound": "C=C(CC[C@@H](C(=O)O)[C@H]1[C@H](O)C[C@@]2(C)C3=CC[C@H]4C(C)(C)[C@@H](O)CC[C@]4(C)C3=CC[C@]12C)C(C)C", "inhibition [%]": -1}
{"Compound": "Cc1ccc(Cl)c(Nc2ccccc2C(=O)O)c1Cl", "inhibition [%]": -5}
{"Compound": "CC(C)=C[C@H]1C[C@](C)(O)[C@@H]2[C@H]3CC[C@@H]4[C@@]5(C)CC[C@H](O[C@@H]6OC[C@H](O)[C@H](O[C@@H]7O[C@H](CO)[C@@H](O)[C@H](O)[C@H]7O[C@@H]7OC[C@@H](O)[C@H](O)[C@H]7O)[C@H]6O[C@@H]6O[C@@H](C)[C@H](O)[C@@H](O)[C@H]6O)C(C)(C)[C@@H]5CC[C@@]4(C)[C@@]34CO[C@@]2(C4)O1", "inhibition [%]": -11}
{"Compound": "Cc1cc(O)cc2c1O[C@](C)(CCC[C@H](C)CCC[C@H](C)CCCC(C)C)CC2", "inhibition [%]": 13}
{"data": "Series 3", "target": "Beta-1 adrenergic receptor (ADRB1, Homo sapiens, UniProt P08588)", "action": "antagonist", "chain of UniProt P08588 (whole entry, looked up)": "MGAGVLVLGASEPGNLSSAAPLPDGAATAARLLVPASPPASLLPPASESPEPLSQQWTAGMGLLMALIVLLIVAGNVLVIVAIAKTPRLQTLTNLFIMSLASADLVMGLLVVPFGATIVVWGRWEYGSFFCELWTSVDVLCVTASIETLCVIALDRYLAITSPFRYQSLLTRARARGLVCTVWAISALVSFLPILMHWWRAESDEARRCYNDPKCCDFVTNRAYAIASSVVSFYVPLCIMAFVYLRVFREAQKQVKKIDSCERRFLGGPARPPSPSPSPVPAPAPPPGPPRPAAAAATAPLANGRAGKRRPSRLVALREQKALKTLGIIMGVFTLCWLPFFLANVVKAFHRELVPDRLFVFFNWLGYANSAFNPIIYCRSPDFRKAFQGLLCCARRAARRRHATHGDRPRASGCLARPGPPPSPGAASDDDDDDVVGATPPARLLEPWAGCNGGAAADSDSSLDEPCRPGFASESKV"}
{"SMILES": "CN(C)CCN(C)C(=O)c1ccc(NC(=O)Nc2ccc(-c3nc(N4CCOCC4)c4ccn(CC(F)(F)F)c4n3)cc2)cc1", "IC50": "≥ 100 µM"}
{"SMILES": "COc1ccccc1N1CCN([S+](=O)([O-])c2ccc(Cl)c(C)c2)CC1", "IC50": "≥ 100 µM"}
{"SMILES": "O=c1cc(-c2ccccn2)oc2c(-c3cn[nH]c3)nccc12", "IC50": "≥ 100 µM"}
{"SMILES": "Cn1c(COc2ccc(Cl)cc2)nnc1SCc1cc(=O)oc2cc(O)ccc12", "IC50": "≥ 100 µM"}
{"data": "Series 4", "SMILES": "O=C(Nc1cnn(-c2csc(C(=O)NC3COC3)c2)c1)Nc1c(F)cccc1Cl", "effect on": "enzyme activity", "concentration": "5 µM", "reference": "untreated control"}
{"target": "CLK4 (Homo sapiens, UniProt Q9HAZ1)", "remaining activity [%]": 92.9}
{"target": "TNK1 (Homo sapiens, UniProt Q13470)", "remaining activity [%]": 90.7}
{"target": "TESK1 (Homo sapiens, UniProt Q15569)", "remaining activity [%]": 91}
{"target": "CDK14 (Homo sapiens, UniProt O94921)", "remaining activity [%]": 104}
{"data": "Series 5", "SMILES": "CS(=O)(=O)NCC[C@H](NC(=O)c1cncc2c1cnn2-c1ccc(F)cc1)c1ccnc(S(C)(=O)=O)c1", "effect on": "cell-free assay", "method": "competition with immobilised ligand", "concentration": "1 µM"}
{"target": "STK33 (Homo sapiens, UniProt Q9BYT3)", "remaining binding": "87%"}
{"target": "NEK9 (Homo sapiens, UniProt Q8TD19)", "remaining binding": "100%"}
{"target": "FGFR3 (Homo sapiens, UniProt P22607, G697C)", "remaining binding": "82%"}
{"target": "CLK3 (Homo sapiens, UniProt P49761)", "remaining binding": "99%"}
{"target": "EPHB4 (Homo sapiens, UniProt P54760)", "remaining binding": "100%"}
{"target": "MAPK14 (Homo sapiens, UniProt Q16539)", "remaining binding": "100%"}
{"target": "RIOK2 (Homo sapiens, UniProt Q9BVS4)", "remaining binding": "100%"}
{"target": "STK26 (Homo sapiens, UniProt Q9P289)", "remaining binding": "98%"}
{"target": "MARK3 (Homo sapiens, UniProt P27448)", "remaining binding": "92%"}
{"target": "PIM2 (Homo sapiens, UniProt Q9P1W9)", "remaining binding": "86%"}
{"target": "MAP3K13 (Homo sapiens, UniProt O43283)", "remaining binding": "100%"}
{"target": "MAP3K2 (Homo sapiens, UniProt Q9Y2U5)", "remaining binding": "100%"}
{"target": "RET (Homo sapiens, UniProt P07949, V804L)", "remaining binding": "100%"}
{"target": "OXSR1 (Homo sapiens, UniProt O95747)", "remaining binding": "88%"}
{"target": "Tyrosine-protein kinase ABL1, phosphorylated (ABL1, Homo sapiens, UniProt P00519, T315I)", "remaining binding": "100%"}
{"target": "WNK2 (Homo sapiens, UniProt Q9Y3S1)", "remaining binding": "100%"}
{"target": "GRK3 (Homo sapiens, UniProt P35626)", "remaining binding": "100%"}
{"target": "NTRK1 (Homo sapiens, UniProt P04629)", "remaining binding": "97%"}
{"target": "Tyrosine-protein kinase ABL1, non-phosphorylated (ABL1, Homo sapiens, UniProt P00519, Q252H)", "remaining binding": "81%"}
{"target": "TLK1 (Homo sapiens, UniProt Q9UKI8)", "remaining binding": "100%"}
{"target": "Non-receptor tyrosine-protein kinase TYK2, JH2 (TYK2, Homo sapiens, UniProt P29597)", "remaining binding": "100%"}
{"target": "Tyrosine-protein kinase ABL1, phosphorylated (ABL1, Homo sapiens, UniProt P00519, F317L)", "remaining binding": "69%"}
{"target": "MST1R (Homo sapiens, UniProt Q04912)", "remaining binding": "99%"}
{"target": "AKT3 (Homo sapiens, UniProt Q9Y243)", "remaining binding": "93%"}
{"target": "PRKAA2 (Homo sapiens, UniProt P54646)", "remaining binding": "97%"}
{"data": "Series 6", "cell line": "mouse MPNST tumor cells", "method": "high-content immunofluorescence imaging", "measured": "nuclear SOX9", "concentration": "10 µM", "time": "12 h", "notes": "mean of 2 replicates", "reference": "DMSO control", "direction": "higher = more nuclear SOX9"}
{"Compound": "Nc1ncnc2c1ncn2[C@@H]1O[C@H](CO)[C@@H](O)[C@@H]1O", "nuclear SOX9 intensity": "106 % of DMSO"}
{"Compound": "CC(COc1ccccc1)NC(C)C(O)c1ccc(O)cc1 (stereo not drawn)", "nuclear SOX9 intensity": "124 % of DMSO"}
{"Compound": "O=C(C1CCCCC1)N1CC(=O)N2CCc3ccccc3C2C1 (stereo not drawn)", "nuclear SOX9 intensity": "97.9 % of DMSO and 97.4 % of DMSO"}
{"Compound": "COc1ccccc1CNC(=O)CCn1c(=O)[nH]c2ccsc2c1=O", "nuclear SOX9 intensity": "97.3 % of DMSO"}
{"Compound": "O=C(Nc1ccc(-c2ccncc2)cc1)N[C@H](CO)c1ccccc1", "nuclear SOX9 intensity": "119 % of DMSO"}
{"Compound": "Cc1ncc([N+](=O)[O-])n1CC(O)CCl (stereo not drawn)", "nuclear SOX9 intensity": "105 % of DMSO"}
{"data": "Series 7", "target": "DNA polymerase theta, ATPase domain (POLQ, Homo sapiens, UniProt O75417)", "effect on": "enzyme activity", "action": "inhibitor", "concentration": "77 µM", "reference": "untreated", "chain of UniProt O75417 (whole entry, unmodified, looked up)": "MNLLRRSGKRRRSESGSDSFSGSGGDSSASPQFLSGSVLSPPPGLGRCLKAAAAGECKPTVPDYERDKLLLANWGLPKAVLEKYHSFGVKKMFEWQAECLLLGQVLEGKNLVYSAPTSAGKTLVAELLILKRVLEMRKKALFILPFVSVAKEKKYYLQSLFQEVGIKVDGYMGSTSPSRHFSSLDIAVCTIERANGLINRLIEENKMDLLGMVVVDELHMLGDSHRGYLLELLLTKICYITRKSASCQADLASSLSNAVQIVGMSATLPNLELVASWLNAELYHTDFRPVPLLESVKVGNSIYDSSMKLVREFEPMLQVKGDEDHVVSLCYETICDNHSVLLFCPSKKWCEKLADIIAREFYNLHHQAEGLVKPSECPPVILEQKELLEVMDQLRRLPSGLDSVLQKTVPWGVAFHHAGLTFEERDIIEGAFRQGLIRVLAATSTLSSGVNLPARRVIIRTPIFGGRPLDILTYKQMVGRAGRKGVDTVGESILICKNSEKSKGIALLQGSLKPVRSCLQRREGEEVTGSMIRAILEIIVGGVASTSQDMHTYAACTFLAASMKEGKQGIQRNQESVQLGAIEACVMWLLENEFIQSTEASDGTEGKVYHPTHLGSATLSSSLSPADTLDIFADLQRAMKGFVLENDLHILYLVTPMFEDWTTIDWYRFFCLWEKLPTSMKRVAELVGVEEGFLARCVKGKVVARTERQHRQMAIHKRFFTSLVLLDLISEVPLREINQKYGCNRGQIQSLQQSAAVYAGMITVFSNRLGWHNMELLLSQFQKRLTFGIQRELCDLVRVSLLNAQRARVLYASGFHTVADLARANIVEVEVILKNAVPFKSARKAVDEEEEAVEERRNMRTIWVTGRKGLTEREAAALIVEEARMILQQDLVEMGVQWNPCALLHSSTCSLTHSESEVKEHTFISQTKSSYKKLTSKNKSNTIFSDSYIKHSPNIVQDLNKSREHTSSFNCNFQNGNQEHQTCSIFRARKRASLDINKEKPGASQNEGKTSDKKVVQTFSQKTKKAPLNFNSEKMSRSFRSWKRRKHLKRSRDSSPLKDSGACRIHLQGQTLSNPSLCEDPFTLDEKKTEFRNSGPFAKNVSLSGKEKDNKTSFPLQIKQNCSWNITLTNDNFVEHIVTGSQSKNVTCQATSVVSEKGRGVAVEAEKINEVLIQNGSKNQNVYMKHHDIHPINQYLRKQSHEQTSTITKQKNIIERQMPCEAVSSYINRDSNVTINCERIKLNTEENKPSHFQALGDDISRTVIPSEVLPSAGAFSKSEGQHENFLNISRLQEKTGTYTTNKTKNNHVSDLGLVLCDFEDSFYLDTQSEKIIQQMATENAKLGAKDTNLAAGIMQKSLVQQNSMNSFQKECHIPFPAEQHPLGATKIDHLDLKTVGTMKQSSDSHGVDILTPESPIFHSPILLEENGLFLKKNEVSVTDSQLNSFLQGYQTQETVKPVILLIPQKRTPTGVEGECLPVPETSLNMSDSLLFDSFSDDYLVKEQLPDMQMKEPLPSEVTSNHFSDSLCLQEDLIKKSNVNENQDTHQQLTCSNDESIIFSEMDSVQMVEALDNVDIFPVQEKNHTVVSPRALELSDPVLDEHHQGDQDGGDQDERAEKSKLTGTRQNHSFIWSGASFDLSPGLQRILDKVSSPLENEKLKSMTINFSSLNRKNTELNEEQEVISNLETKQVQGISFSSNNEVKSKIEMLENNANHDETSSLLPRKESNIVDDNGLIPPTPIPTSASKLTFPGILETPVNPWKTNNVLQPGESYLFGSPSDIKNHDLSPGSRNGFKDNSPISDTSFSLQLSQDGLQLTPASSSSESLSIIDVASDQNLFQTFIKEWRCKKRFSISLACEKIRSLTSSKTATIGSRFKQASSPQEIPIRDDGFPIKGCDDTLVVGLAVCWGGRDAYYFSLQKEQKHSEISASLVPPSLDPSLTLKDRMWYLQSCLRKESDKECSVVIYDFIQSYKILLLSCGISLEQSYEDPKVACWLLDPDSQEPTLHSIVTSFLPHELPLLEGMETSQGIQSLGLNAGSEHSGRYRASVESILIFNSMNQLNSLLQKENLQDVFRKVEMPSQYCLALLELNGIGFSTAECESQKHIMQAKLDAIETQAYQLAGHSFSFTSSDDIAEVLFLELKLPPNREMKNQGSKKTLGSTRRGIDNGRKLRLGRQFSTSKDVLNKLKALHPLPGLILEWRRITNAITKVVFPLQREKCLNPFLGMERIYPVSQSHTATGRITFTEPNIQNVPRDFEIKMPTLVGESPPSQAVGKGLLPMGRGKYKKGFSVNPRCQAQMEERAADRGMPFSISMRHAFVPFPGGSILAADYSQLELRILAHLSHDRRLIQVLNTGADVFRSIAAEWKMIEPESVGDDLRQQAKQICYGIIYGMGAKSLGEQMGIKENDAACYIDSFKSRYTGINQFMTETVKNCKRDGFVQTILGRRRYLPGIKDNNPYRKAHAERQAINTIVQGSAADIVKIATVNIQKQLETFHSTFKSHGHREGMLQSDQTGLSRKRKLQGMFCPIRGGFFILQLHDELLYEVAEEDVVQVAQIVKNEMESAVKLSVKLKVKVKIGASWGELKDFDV"}
{"Compound": "O=C(/C=C/C=C/c1ccc2c(c1)OCO2)N1CCCCC1", "remaining activity": "90.8% and 93.1%"}
{"Compound": "O=c1c(-c2ccc(F)cc2)c(-c2ccncc2)[nH]n1-c1ccc(Cl)cc1", "remaining activity": "110%"}
{"Compound": "NC[C@@H]1O[C@H](C23CC4CC(CC(C4)C2)C3)Cc2c1ccc(O)c2O", "remaining activity": "105%"}
{"Compound": "O=C(O)c1ccccc1Nc1cccc(C(F)(F)F)c1", "remaining activity": "77.8% and 76.9%"}
{"note": "Some of these lines once more (series 7):"}
{"Compound": "NC[C@@H]1O[C@H](C23CC4CC(CC(C4)C2)C3)Cc2c1ccc(O)c2O", "remaining activity": "105%"}
{"Compound": "O=C(/C=C/C=C/c1ccc2c(c1)OCO2)N1CCCCC1", "remaining activity": "90.8% and 93.1%"}
{"Compound": "O=c1c(-c2ccc(F)cc2)c(-c2ccncc2)[nH]n1-c1ccc(Cl)cc1", "remaining activity": "110%"}
{"Compound": "O=C(O)c1ccccc1Nc1cccc(C(F)(F)F)c1", "remaining activity": "77.8% and 76.9%"}
